Experimental data pooled from the literature.
Each line is one published result; not all experiments were run side by side. Converted amounts (≈) assume the structure as drawn.
Organism: Enterococcus faecalis

| Molecule | test | system | conditions | MIC [µg/mL] |
| --- | --- | --- | --- | --- |
| O=C(COc1ccc(-c2nc3ccccc3[nH]2)cc1)N1CCOCC1 | microbial growth, broth dilution | ATCC29212 | – | > 256 |
| Cc1ccc(C(C)C)cc1.Cc1ccc(C(C)C)cc1.[Cl][Ru][Cl].[Cl][Ru][Cl] | broth microdilution | ATCC 29212 | 37 °C | > 1000 |
| COc1cc(-c2cc3cc(OC)c(OC)c(OC)c3c(C)[n+]2C)cc(-c2ccc(-c3ccccc3)cc2)c1OC.[I-] | broth microdilution | ATCC 51575 VRE, brain heart infusion broth | 24 h, 37 °C | 4 to 8 |
| Clc1ccc2nc(-c3ccc(OCc4cn(CCN5CCOCC5)nn4)cc3)[nH]c2c1 | microbial growth, broth dilution | ATCC29212 | – | > 256 |
| Cc1cc(C)n(C(N)=S)n1.Cc1ccc(C(C)C)cc1.[Cl][Ru][Cl] | broth microdilution | ATCC 29212 | 37 °C | 62.5 |
| CCC[C@H]1c2ccccc2C=NN1C(=O)/C=C/c1cc(Cc2cnc(N)nc2N)cc(OC)c1OC (racemic) | – | ATCC 29212 | added: folinic acid 0.1 µg/mL | 0.06 to 0.125 (≈ 0.123 to 0.257 µM) |
| vancomycin | broth microdilution | BM4166, VanA | – | 2000 |
| chlorobiphenyl vancomycin | – | BM4166, VanA | 16 h, 37 °C | 2.5 |
| CCN(CC)CCOc1ccc(-c2nc3ccc(Cl)cc3[nH]2)cc1F | microbial growth, broth dilution | ATCC29212 | – | 64 (≈ 177 µM) |
| teicoplanin aglycone | – | ATCC 47077 glycopeptide sensitive | 18 h, 37 °C | 8 |
| COc1cc2cc(-c3cccc(-c4ccc(C(C)(C)C)cc4)c3)[n+](C)c(C)c2cc1OC.[I-] | broth microdilution | ATCC 51575 VRE, brain heart infusion broth | 24 h, 37 °C | 4 to 8 |
| O=C(COc1ccc(-c2nc3ccc(Cl)cc3[nH]2)cc1F)N1CCOCC1 | microbial growth, broth dilution | ATCC29212 | – | > 256 |

A few entries again:
| Molecule | test | system | conditions | MIC [µg/mL] |
| --- | --- | --- | --- | --- |
| O=C(COc1ccc(-c2nc3ccccc3[nH]2)cc1)N1CCOCC1 | microbial growth, broth dilution | ATCC29212 | – | > 256 |
